Measurements collected from several papers.
Lines come from different studies, so protocols differ. “And” joins repeats or separate records; there may be more than shown. ± marks the error that the study gave.

C=C(NC(=O)c1csc(-c2nc3c(cc2O)-c2nc(cs2)C(=O)NC(C(C)O)C(=O)NC(=C(C)OC)c2nc(cs2)C(=O)NC2c4nc(cs4)C(=O)NC(COC(=O)c4c5c6c(cccc6n4O)COC(=O)C(OC4CC(C)(O)C(N(C)C)C(C)O4)C2OC5)c2nc-3cs2)n1)C(N)=O (stereo not drawn) — scaled CLint (metabolic stability; monkey, liver microsomes; 2 µM): 14.7 mL/min/kg
O=C1NC2(CC2)COc2ncc(F)cc2[C@H]2COCCN2c2ccn3ncc1c3n2 — revertant colonies (Salmonella typhimurium; Ames test; TA102; 150 µg/plate, 48 h, with: rat liver S9): 396 ± 12 revertants/plate
Nc1nc2cc(C(=O)c3ccc(F)cc3)ccc2[nH]1 — revertants per plate (Escherichia coli; Ames preincubation test; WP2 uvrA; 625.0 µg/plate, 3 days, without S9): 21 revertants/plate
O=C1C2CC3CC1CC(C(=O)N1CCN(c4ccc([N+](=O)[O-])c5ncccc45)CC1)(C3)C2 — revertant colony count (Escherichia coli; Ames test; WP2 uvrA pKM101; 0.13 µg/well, with S9 activation): 27 colonies/well
CC(C)OCCOCc1ccc(OCC(O)CN(N=O)C(C)C)cc1 (stereo not drawn) — revertant fold increase (Salmonella typhimurium; Ames test; TA98; 5 µg/plate, without metabolic activation; relative to: solvent control): 0.9 fold
Nc1nc2[nH]nc(CCC(=O)O)c(=O)c2c(=O)[nH]1 — intracellular accumulation (Escherichia coli; LC-MS/MS; BW25113; 100 µM, 10 min, 37 °C): 1.38 ± 0.6 µM
CCN(CC)CC#CCNc1ccnc2cc(Cl)ccc12 — revertants (Salmonella typhimurium; mini-Ames test; TA98; 250.0 µg/well, without S9): 12 revertants/well and 10 revertants/well
Cc1ncsc1-c1ccc(C(C)NC(=O)C2CC(O)CN2C(=O)C(NC(=O)CCCCCCCCCCN2CCCC(Nc3ncc(Cl)c(Nc4ccccc4S(=O)(=O)C(C)C)n3)C2)C(C)(C)C)cc1 (stereo not drawn) — log2 fold change (22Rv1; RNA-seq, refers to: ZNF585B mRNA; concentration not given; relative to: DMSO): -1.67
Nc1ncc(-c2cc(-c3cnn(CC(F)(F)F)c3)ncc2F)nc1C(=O)NC1CNCC(F)C1 (stereo not drawn) — remaining binding (S6K1; KINOMEscan competition binding; 1 µM; relative to: DMSO control): 86%
COC(=O)Nc1nc2cc(C(O)c3ccc(F)cc3)ccc2[nH]1 (stereo not drawn) — revertants per plate (Escherichia coli; Ames preincubation test; WP2 uvrA; 875.0 µg/plate, 3 days, without S9): 43 revertants/plate
CC(C)(C)NCC(SS(=O)(=O)O)c1ccccc1 (stereo not drawn) — body weight (Schistosoma mansoni; perfusion day 44; infected Swiss Webster mice; 600 mg/kg single dose, dosed day 7 post-infection): 33.7 g and 30 g and 28 g and 27 g and 31.2 g
COC(=O)CC(C)c1nn(C)c2nc(N)[nH]c(=O)c2c1=O (stereo not drawn) — intracellular accumulation (Escherichia coli; LC-MS/MS; BW25113; 100 µM, 10 min, 37 °C): 34.9 µM
CN1CCCNC(=O)c2cccc(c2)C(=O)NCCCN(C)CCCNc2cccc3c2C(=O)c2cccc(c2C3=O)NCCC1 — log2 fold change (SAS; RNA-seq, refers to: MT-ND4L mRNA; 1 µM, 24 h; relative to: untreated cells): -3.61
COC1CN([C@H]2CC[C@H]([C@@]3(C)Oc4c(Cl)cc(C(=O)NCc5c(SC)cc(C)[nH]c5=O)c(C)c4O3)CC2)C1 — log2 fold change (RNA-seq, refers to: KHDRBS3 mouse homolog; mouse, HT-1376 xenograft, whole blood; dose not given; relative to: vehicle): 3.6
Cn1nc(CNc2nnn[nH]2)c(=O)c2c(=O)[nH]c(N)nc21 — intracellular accumulation (Escherichia coli; LC-MS/MS; BW25113; 100 µM, 10 min, 37 °C): 5.67 ± 0.2 µM

Excerpt of the above:
Nc1ncc(-c2cc(-c3cnn(CC(F)(F)F)c3)ncc2F)nc1C(=O)NC1CNCC(F)C1 (stereo not drawn) — remaining binding (S6K1; KINOMEscan competition binding; 1 µM; relative to: DMSO control): 86%
CCN(CC)CC#CCNc1ccnc2cc(Cl)ccc12 — revertants (Salmonella typhimurium; mini-Ames test; TA98; 250.0 µg/well, without S9): 12 revertants/well and 10 revertants/well
